Measurements from different studies.
Parts stem from different laboratories: compare values within a part only. Substitutions count along the parent as printed.

Block 1
Target: UDP-N-acetylglucosamine--peptide N-acetylglucosaminyltransferase 110 kDa subunit (OGT, Homo sapiens, UniProt O15294)
Chain of UniProt O15294 (whole entry, looked up): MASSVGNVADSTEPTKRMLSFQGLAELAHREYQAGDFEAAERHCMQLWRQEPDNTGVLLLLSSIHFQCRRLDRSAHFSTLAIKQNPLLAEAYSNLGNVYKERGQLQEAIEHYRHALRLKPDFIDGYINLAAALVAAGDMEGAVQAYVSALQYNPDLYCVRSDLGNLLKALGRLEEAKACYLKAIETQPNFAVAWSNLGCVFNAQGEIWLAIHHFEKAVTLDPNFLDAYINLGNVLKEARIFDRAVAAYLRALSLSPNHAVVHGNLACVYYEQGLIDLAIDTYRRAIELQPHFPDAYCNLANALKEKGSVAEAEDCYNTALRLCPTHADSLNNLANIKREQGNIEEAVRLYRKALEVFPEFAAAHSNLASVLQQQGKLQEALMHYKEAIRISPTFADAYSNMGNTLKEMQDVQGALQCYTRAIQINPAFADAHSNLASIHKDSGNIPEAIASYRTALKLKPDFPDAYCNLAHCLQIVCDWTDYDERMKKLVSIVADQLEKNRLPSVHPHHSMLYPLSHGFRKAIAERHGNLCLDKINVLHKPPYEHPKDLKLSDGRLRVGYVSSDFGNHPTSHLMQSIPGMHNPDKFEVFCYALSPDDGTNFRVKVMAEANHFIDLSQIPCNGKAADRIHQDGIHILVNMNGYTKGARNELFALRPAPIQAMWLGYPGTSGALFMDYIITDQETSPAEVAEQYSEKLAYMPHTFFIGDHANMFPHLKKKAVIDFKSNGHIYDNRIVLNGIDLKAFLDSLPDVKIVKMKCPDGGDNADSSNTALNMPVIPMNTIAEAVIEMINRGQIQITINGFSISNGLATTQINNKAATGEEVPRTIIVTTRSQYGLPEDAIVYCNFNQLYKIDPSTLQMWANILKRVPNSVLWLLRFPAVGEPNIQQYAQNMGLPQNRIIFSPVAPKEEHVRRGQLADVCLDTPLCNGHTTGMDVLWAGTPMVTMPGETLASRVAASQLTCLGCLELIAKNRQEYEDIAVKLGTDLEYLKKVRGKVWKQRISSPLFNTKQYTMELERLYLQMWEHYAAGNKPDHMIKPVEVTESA
Effect on: binding
Technique: phage display NGS
Molecule type: peptide
Setting: panning round 2
Relative to: input library
Under “minimum log2 enrichment ratio”, `SIKGAKPKYQIEYVF` is recorded as 2.
`HAMHSHDSDHMTPYR`: “minimum log2 enrichment ratio” 2.55.
`ERVYDPMYQIRIDFT` — result for “minimum log2 enrichment ratio”: 2.04.
`DSYHHPVKKTTHTH`: “minimum log2 enrichment ratio” 1.58.
Under “minimum log2 enrichment ratio”, `EVHRDMRYGHAPHA` is recorded as 2.18.
For `HSFMSYHLHTYHSMP`, “minimum log2 enrichment ratio” read 2.82.
Under “minimum log2 enrichment ratio”, `FLSSFPPKYPIEYET` is recorded as 2.93.

Block 2
Target: CCND3, cyclin fold, Cln2 fusion (human)
Technique: yeast growth competition, sequencing
Sample: yeast
Setting: weak parent motif
Relative to: not given
Reading: higher = stronger binding
Starting sequence: viral docking peptide; TSVRRALFTGGSD
`TSVRRHLFTGGSD [A6H]`: “normalised enrichment score” 0.313.
For `TSVRRALFTGGVD [S12V]`, “normalised enrichment score” read -0.0922.
Under “normalised enrichment score”, `TAVRRALFTGGSD [S2A]` is recorded as 0.199.
For `TRVRRALFTGGSD [S2R]`, “normalised enrichment score” read 0.151.
`TSVREALFTGGSD [R5E]`: “normalised enrichment score” -0.11.
`TSVRYALFTGGSD [R5Y]`: “normalised enrichment score” 0.0855.
Under “normalised enrichment score”, `TSVRRALFTGGAD [S12A]` is recorded as 0.0742.
Under “normalised enrichment score”, `TSVRRALFIGGSD [T9I]` is recorded as -0.139.
Under “normalised enrichment score”, `TSVRRCLFTGGSD [A6C]` is recorded as 0.18.
`TSVRRALQTGGSD [F8Q]`: “normalised enrichment score” 0.344.
For `TSVRRACFTGGSD [L7C]`, “normalised enrichment score” read 0.232.
`TGVRRALFTGGSD [S2G]` — result for “normalised enrichment score”: 0.2.
For `TSVRRALFSGGSD [T9S]`, “normalised enrichment score” read 0.114.
For `TSVRRALFTGGMD [S12M]`, “normalised enrichment score” read 0.0345.
`TSVRRALFTGISD [G11I]` — result for “normalised enrichment score”: -0.0408.
For `TSRRRALFTGGSD [V3R]`, “normalised enrichment score” read 0.141.
For `TSVRRVLFTGGSD [A6V]`, “normalised enrichment score” read 0.25.
`TSVRRALFTGGDD [S12D]` — result for “normalised enrichment score”: 0.183.
`TSVRAAAFTGGSD [R5A L7A]`: “normalised enrichment score” 0.0478.
`TKVRRALFTGGSD [S2K]` — result for “normalised enrichment score”: 0.143.
For `TSVRRALFTGGTD [S12T]`, “normalised enrichment score” read -0.166.
Under “normalised enrichment score”, `TSVRRLLFTGGSD [A6L]` is recorded as 0.305.
For `TSVRRALETGGSD [F8E]`, “normalised enrichment score” read -0.0232.
For `TSVWRALFTGGSD [R4W]`, “normalised enrichment score” read 0.274.
Under “normalised enrichment score”, `TSVIRALFTGGSD [R4I]` is recorded as 0.0606.

Block 3
Target: Ras GTPase-activating protein-binding protein 1, full length (G3BP1, Homo sapiens, UniProt Q13283)
Chain of UniProt Q13283 (whole entry, looked up): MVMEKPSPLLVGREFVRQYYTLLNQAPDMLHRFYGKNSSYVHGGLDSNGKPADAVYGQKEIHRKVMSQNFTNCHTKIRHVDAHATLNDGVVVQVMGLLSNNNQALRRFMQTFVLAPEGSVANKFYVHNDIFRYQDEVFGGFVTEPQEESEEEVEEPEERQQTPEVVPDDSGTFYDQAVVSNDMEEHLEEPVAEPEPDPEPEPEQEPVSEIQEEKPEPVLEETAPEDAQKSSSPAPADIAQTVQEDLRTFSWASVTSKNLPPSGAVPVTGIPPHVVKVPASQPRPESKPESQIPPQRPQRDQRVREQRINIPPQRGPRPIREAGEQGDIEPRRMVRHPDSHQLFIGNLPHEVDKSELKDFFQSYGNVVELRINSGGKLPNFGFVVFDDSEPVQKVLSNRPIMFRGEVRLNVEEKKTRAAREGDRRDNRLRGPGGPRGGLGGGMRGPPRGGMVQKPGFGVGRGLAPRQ
Technique: RNA Bind-n-Seq
Molecule type: RNA
Sample: in vitro
Concentration: 200 nM
Setting: whole 134-nt RNA, ends assumed
Together with: 150 mM LiCl
Relative to: input library
Reading: higher = stronger binding
Each molecule: 7-deaza-guanosine replaces G
Shared flanks, not repeated: GGGAGUUCUACAGUCCGACGAUC … UGGAAUUCUCGGGUGUCAAGG
The log2 enrichment of `AGUCCUGUGCUACACAUCGUAUGUACCGAAUCGGGAAAAGGGGAAAAGGGAAAAGGGAAAGUAUUAUGUUACGCCGUUCGGAUCUGCACU` is reported as -0.556.
`CUCAAGUCCUGUGCUACACAUCGUAUGUACCGAAUCGGUUUUUGGAAAGGUGGAAAGUAUUAUGUUACGCCGUUCGGAUCUGCACUUCCA` has a log2 enrichment of -0.0538.
For `UCCUGUGCUACACAUCGUAUGUACCGAAUCGGUUUUUUGGUUUUUUGGGUUUUUUGGGGAAAGUAUUAUGUUACGCCGUUCGGAUCUGCA`, the log2 enrichment was -0.547.
`CUCAAGUCCUGUGCUACACAUCGUAUGUACCGAAUCGGGGCCGGCCGGGCCGGAAAGUAUUAUGUUACGCCGUUCGGAUCUGCACUUCCA` gave a log2 enrichment of 0.625.
`CCUGUGCUACACAUCGUAUGUACCGAAUCGGCCCCCCCGGGCCCCCCCGGCCCCCCCGGGGAAAGUAUUAUGUUACGCCGUUCGGAUCUG` has a log2 enrichment of 0.18.
The log2 enrichment of `UCAAGUCCUGUGCUACACAUCGUAUGUACCGAAUCGGGGAGGGGAGGGGUGGGGAAAGUAUUAUGUUACGCCGUUCGGAUCUGCACUUCC` is reported as 0.278.
The log2 enrichment of `UGGCCCUGGUGGCAUGCGGGGAGGAAGAGGUGGCAUCAUGGAUCGUGGUGGUCCCGGUGGAAUGUUCAGAGGUGGCCGUGGUGGAGACAG` is reported as 0.331.
For `CCUGUGCUACACAUCGUAUGUACCGAAUCGGGAAAAAGGGUUUUUUUGGGAAAAAAAGGGAAAGUAUUAUGUUACGCCGUUCGGAUCUGC`, the log2 enrichment was -0.884.

Block 4
Target: Hepatocyte nuclear factor 3-alpha (Foxa1, Mus musculus, UniProt P35582, residues 1-468, full length assumed)
Chain of UniProt P35582 (whole entry, looked up): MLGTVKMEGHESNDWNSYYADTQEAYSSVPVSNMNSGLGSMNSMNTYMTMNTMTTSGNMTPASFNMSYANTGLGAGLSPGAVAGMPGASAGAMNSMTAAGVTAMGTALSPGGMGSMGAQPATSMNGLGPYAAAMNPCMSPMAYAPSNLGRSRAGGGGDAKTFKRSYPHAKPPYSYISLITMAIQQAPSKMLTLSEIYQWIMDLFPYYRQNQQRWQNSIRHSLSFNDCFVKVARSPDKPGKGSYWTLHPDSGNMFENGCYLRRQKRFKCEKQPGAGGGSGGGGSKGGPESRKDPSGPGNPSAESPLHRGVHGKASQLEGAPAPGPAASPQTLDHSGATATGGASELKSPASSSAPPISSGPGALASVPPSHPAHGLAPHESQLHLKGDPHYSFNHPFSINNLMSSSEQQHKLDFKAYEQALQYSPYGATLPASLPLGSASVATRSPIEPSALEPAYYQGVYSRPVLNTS
Technique: EMSA with sequencing
Molecule type: double-stranded DNA, one strand shown
Sample: in vitro
Concentration: 10 and 20 nM
Setting: whole designed probe, mean of two concentrations, ends assumed
Relative to: negative control set to 0
Reading: higher = stronger binding
Shared flanks, not repeated: GTGAGCGGTGCCCATTGATGGGGAAC … TTTCACTGGGATCGTGGGGAC
For `ATCTTCCCCCTCTTCCTTGCCCCACCAGCTCACCTTCCCGGGTCAAAGTAAACAAGTGTTTACTTTGAAGCCGGCATTCGTTAACCCTCTTCACGCGCATACTGCCAAAGTAAACAGATCTAACATGGTCCTTTGGCGACGCCAGGCTCCGGGAGAGCAAAGCACCGTGTCAGGGCCATGATCCGGGGTGGCC`, “normalised bound fraction” read 0.541 ratio.
For `ATCCACGAACCTGGCCCTGTCTGGTAACCACAGTGAACCATCGCAAGATACAGCACTATGTGCCCAGTTGGGCTGGTAATGTCACACAAATGTGTCAACACTGGCACATCCTCAGGTAATGACTCACGTACTTGTTTTTGGAGAGGGACTAGACCTTCATCCTTGAGGTGAAGAAGATTTTCTCTCCAGGGTG`, “normalised bound fraction” read 0.0486 ratio.
Under “normalised bound fraction”, `AAATTGGTAATGACCATATTATCTGCTGGAAGCTTGGGAAGGAAAAGGGAAGTTGATTTGCTGATTTCTTACAATGAGTCAGTGATGTTATTAAAATTACATATGACTAATTTAATTCTCAAAAATGCTGAGAAAATTAGACATTATCTTCATTTAACAGATGGGGAATATGATATGCAGTTACTAATGGCAG` is recorded as -0.0417 ratio.
For `AACAAACAAATAAAACAACTAGTATGGAAGCTAGAATAATGTGATGCACCATTACACCAAATATTCAGTCTTAACATGGTTTTTAATATTATGTAAACATGGAAGGTATTGCCATTGTTCATATGATACAGAATCAATGGCACTCACAATCATCTGAATATATTGAAAAATGGCACCTTCAAATAAAAATTGT`, “normalised bound fraction” read 0.489 ratio.
`TTTGCTCCCCACACCCATTGCCTGCCACAAAAGGGTATTTTGCCAACTTCAGTATGTAAACATTTAGGGATATAGATGAGCTGATCACATGTCTGTTTACATAGTTAATAATTTACGCATACACATTTAAACTTACTCATATAAAGTCATACACAATTTAGAATCATTACTTTTTGCTATTCTTACATTTCAG`: “normalised bound fraction” 0.518 ratio.
For `CAGCTGGAATGCCTGGCGGAGGCTCCGGTGTCAAGAGCCTGAGAACCTGAGAACCCACCCGAGGCCCCCGCCAGGCAGCGCCGCCAGCAGATTAAATTACTCTGGGGCCCTATCTCCGCGCCATCGGGCCAGAAAATTGCCCTGGCGGGATCCAGGGAAACTGCGGTTTTTGTTATGATAGCTGGGGCAGGGA`, “normalised bound fraction” read -0.0492 ratio.
For `AATGTTTACACTTTTAAAAACTACTCTTTGATTTAAAAAATTAACTCTAAATGTATGAAAGTCTATTTTGAGTATTCAGAGCAGGTTACGGGCATGTTTACATAGTTCTGGGTACAGGGATAATTTAAGAATCAGATTTTTCTGTCATATATAACAATTTTTGAAACCTGCAAATCTGCGTGAGTTACAAGAT`, “normalised bound fraction” read 0.423 ratio.
Under “normalised bound fraction”, `CACTAGCCAAGCAAATGCTACCTTTCCTAAATTACGCCGTGGTATTGTGTACGACAGCAGCAGGGTTGCTATTTTAAAATGGGATTGCGTAAAATAATCTTGTGCCCAGATGACAGGAAGTACTAAGTTGATGATTAATTGATGCTCTGGTACGGCCTCGTGCTTTCCAGTGCTTCCATTTGTGTGACGATCC` is recorded as -0.056 ratio.

Block 5
Target: CEP164, C-terminal peptide (human)
Technique: DHFR complementation, deep sequencing
Sample: yeast
Setting: single substitutions, model-inferred values
Relative to: wild type
Reading: higher = weaker binding
Starting sequence: PDZK1, PDZ domain 2 (human); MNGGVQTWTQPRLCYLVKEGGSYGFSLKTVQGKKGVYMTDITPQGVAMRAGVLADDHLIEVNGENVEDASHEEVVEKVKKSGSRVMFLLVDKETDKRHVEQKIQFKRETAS; partner HNRVKVYRF
`F105T` — result for “binding free energy change”: -0.159 kcal/mol.
`L58V`: “binding free energy change” -0.373 kcal/mol.
For `L16Y`, “binding free energy change” read 1.79 kcal/mol.
For `P43Q`, “binding free energy change” read 0.196 kcal/mol.
For `V52R`, “binding free energy change” read 2.15 kcal/mol.
For `K33F`, “binding free energy change” read 0.345 kcal/mol.
`L58D` — result for “binding free energy change”: 0.221 kcal/mol.
Under “binding free energy change”, `E93P` is recorded as 0.0936 kcal/mol.
